Measured values from different studies.
Each line is one published result; not all experiments were run side by side. ± gives the spread as reported.
Succinate dehydrogenase complex: Succinate dehydrogenase complex (Sus scrofa, UniProt A5GZW8+D0VWV4+Q007T0+Q0QF01)
Chain of UniProt Q007T0 (whole entry, looked up): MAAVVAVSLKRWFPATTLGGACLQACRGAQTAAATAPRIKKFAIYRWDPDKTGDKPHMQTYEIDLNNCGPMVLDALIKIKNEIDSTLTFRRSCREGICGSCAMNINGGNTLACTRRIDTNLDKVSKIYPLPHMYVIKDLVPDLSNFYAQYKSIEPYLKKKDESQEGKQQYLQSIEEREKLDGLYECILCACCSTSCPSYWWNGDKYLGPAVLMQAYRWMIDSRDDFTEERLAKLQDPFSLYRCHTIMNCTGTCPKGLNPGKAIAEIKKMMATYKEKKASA
Chain of UniProt D0VWV4 (whole entry, looked up): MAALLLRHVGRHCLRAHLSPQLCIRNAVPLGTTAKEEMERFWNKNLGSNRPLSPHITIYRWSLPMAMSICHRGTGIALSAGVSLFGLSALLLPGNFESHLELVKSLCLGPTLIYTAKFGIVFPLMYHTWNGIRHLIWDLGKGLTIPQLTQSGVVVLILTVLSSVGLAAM
Chain of UniProt A5GZW8 (whole entry, looked up): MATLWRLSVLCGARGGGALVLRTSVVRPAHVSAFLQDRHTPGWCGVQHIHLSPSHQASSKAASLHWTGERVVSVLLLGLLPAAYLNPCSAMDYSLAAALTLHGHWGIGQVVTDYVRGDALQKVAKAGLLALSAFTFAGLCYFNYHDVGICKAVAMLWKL
Chain of UniProt Q0QF01 (whole entry, looked up): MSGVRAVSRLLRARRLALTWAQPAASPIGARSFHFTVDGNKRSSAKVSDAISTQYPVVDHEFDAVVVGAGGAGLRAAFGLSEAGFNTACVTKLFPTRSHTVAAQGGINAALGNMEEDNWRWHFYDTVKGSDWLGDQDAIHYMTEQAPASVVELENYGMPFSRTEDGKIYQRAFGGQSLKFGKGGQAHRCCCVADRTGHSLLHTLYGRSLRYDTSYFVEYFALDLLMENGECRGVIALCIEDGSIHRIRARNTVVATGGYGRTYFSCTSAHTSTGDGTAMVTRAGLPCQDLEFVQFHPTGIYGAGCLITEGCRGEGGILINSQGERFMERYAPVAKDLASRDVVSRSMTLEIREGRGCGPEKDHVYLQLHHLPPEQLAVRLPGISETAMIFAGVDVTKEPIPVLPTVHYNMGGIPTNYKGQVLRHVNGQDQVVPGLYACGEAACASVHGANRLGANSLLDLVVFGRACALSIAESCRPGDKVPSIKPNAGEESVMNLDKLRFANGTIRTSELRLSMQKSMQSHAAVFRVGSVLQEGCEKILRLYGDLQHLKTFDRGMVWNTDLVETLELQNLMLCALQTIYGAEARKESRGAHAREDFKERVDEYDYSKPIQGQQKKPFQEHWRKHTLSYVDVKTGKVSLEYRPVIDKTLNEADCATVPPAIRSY
AGER: Advanced glycosylation end product-specific receptor (AGER, Homo sapiens, UniProt Q15109)
Chain of UniProt Q15109 (whole entry, looked up): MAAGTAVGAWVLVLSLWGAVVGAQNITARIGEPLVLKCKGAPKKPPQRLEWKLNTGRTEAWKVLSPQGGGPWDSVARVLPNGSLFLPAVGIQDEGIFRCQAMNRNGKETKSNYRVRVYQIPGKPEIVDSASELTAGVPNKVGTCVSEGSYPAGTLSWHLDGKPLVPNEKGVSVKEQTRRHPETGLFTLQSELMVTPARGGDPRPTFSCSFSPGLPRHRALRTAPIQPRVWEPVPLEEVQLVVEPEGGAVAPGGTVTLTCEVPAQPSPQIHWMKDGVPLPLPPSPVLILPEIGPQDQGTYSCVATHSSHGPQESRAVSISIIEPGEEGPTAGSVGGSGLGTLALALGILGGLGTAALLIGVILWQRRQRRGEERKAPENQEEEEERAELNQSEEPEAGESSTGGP
GSTO1: Glutathione S-transferase omega-1 (GSTO1, Homo sapiens, UniProt P78417)
Chain of UniProt P78417 (whole entry, looked up): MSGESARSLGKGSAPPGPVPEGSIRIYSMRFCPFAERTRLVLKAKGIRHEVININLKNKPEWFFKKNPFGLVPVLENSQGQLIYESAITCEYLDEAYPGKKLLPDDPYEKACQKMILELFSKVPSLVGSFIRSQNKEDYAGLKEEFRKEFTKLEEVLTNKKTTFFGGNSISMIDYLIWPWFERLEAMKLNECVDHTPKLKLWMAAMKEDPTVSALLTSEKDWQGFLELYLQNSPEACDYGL
GLO1: Lactoylglutathione lyase (GLO1, Homo sapiens, UniProt Q04760)
Chain of UniProt Q04760 (whole entry, looked up): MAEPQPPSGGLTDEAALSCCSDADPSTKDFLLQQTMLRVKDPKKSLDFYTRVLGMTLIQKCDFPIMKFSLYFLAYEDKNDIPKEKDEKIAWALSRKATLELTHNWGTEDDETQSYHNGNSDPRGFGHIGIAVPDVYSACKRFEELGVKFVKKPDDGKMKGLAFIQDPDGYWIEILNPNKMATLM
Chain of UniProt P14324 (whole entry, looked up): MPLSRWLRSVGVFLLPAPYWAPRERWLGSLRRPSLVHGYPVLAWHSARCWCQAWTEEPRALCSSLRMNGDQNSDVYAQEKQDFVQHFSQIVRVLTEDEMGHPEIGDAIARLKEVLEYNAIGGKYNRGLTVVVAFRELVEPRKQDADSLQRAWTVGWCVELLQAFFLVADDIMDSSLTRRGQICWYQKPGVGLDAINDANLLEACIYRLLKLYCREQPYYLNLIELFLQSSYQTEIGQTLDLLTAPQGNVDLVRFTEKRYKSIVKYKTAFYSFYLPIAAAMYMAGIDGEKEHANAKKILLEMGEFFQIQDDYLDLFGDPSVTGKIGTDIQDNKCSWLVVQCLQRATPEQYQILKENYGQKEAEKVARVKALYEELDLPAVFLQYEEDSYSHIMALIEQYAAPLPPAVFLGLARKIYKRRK
Chain of UniProt Q99873 (whole entry, looked up): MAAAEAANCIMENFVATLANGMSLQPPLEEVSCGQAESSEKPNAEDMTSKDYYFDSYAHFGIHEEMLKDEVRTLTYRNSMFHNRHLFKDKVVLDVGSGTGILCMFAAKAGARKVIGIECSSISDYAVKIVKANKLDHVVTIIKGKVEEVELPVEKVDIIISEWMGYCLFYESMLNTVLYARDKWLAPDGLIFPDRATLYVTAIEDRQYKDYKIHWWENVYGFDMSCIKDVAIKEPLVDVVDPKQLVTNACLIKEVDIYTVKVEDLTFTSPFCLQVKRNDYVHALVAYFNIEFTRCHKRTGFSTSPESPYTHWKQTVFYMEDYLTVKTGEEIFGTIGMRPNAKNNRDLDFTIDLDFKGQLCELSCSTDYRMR
Chain of UniProt P19643 (whole entry, looked up): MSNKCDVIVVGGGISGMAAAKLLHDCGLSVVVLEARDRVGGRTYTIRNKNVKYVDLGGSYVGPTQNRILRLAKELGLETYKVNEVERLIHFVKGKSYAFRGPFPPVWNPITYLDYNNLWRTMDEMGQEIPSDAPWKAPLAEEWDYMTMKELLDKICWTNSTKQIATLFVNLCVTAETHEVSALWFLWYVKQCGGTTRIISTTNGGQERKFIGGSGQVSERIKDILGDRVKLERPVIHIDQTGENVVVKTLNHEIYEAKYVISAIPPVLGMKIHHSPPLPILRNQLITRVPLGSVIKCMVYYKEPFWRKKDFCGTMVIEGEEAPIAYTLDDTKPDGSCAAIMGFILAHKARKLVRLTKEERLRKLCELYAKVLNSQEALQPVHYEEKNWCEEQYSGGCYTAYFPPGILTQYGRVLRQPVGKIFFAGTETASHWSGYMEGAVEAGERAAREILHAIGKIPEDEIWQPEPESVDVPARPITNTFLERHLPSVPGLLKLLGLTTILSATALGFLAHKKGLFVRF
Chain of UniProt Q9NXA8 (whole entry, unmodified, looked up): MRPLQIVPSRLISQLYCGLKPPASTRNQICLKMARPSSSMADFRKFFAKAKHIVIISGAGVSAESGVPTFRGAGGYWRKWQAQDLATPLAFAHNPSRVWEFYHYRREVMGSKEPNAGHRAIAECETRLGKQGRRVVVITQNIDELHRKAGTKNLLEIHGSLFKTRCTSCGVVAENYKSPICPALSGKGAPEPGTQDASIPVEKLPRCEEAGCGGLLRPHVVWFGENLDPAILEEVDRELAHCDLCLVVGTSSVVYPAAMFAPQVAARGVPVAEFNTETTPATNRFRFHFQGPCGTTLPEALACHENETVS
Chain of UniProt Q05097 (whole entry, looked up): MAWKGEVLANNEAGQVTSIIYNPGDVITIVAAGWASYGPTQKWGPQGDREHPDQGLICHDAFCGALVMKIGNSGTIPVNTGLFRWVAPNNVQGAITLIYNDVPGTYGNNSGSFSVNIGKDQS

With O=C(Nc1ccccc1Nc1ccccc1)c1cccnc1F the inhibition was 10.7% (Succinate dehydrogenase complex; enzyme activity, double-antibody sandwich ELISA; 8 µM).
The inhibition of Cc1cc(Nc2cc(CN(C)C)cc(NC(=O)c3cccc(Nc4ccnc5ccccc45)c3)c2)nc(N)n1 is reported as greater than 50% (DNA polymerase eta (POLH, Homo sapiens, UniProt Q9Y253); enzyme activity, inhibitor; 10 µM).
Cc1cc(NC(=O)[C@H](O)c2cc(F)cc(F)c2)ccc1-c1cnc(N)c(C(=O)NC(C)C)c1 has an inhibition of greater than 50% (BLK (Homo sapiens, UniProt P51451); cell-free assay, competition with immobilised ligand; 1 µM).
For CC(C)(C)c1n[nH]cc1-c1nc2ccc3[nH]ncc3c2c2c1CCCC2, the inhibition was 20% (FLT3 (Homo sapiens, UniProt P36888, ITD); enzyme activity, inhibitor, ADP detection; 0.1 µM).
For O=C(Nc1cc(Cl)ccc1O)c1nn2c(C(F)(F)F)cc(-c3cc(Br)cs3)nc2c1Br, inhibition read “inhibited” (Hepatitis A virus cellular receptor 2, part galectin-9 interaction (Homo sapiens, UniProt Q8TDQ0); galectin-9 binding, competitive ELISA; 2.5 µM).
For CCOC(=O)C1=CN([C@@H]2O[C@H](CO)[C@@H](O)[C@H]2O)C=CC1, the inhibition was 2.5 fold (SIRT5 (Homo sapiens, UniProt Q9NXA8, A86S); desuccinylase activity, inhibitor; concentration not given).
O=C(Nc1ccccc1Nc1ccccc1)c1cccnc1Br gave an inhibition of 12.6% (Succinate dehydrogenase complex; enzyme activity, double-antibody sandwich ELISA; 0.5 µM).
COc1cc(C(=O)O[C@@H]2Cc3c(O)cc(O)cc3O[C@@H]2c2ccc(O)c(O)c2)cc(O)c1O has an inhibition of 68.7% (maltase, rat; enzyme activity, inhibitor; rat intestinal brush border vesicles; 10 µM).
O=C(Nc1ccc(Oc2ccc(Cl)cc2)cc1)c1cc2ccc(Cl)cc2s1 gave an inhibition of no more than 77% (AGER; binding to AGE-BSA, competitive ELISA; 100 µM, 60 min).
Under inhibition, Cn1c(=O)c2cc(C(=O)NCCCN3CCCCCC3)sc2c2ccccc21 is recorded as “no inhibition” (FDPS (Homo sapiens, UniProt P14324); enzyme activity; up to 200 µM).
With O=C(NC1CCCCC1)C(c1ccccn1)N(C(=O)CCl)c1ccc(F)cc1 (racemic) the inhibition was 100% (GSTO1; probe labelling, gel-based competitive ABPP; MDA-MB-435 soluble proteome; 100 nM, together with: SE-Rh probe).
For O=C(O)c1ccc(/N=N/c2cc(C(=O)O)c(O)c3ccccc23)cc1, the inhibition was 67.7% (GLO1; enzyme activity, inhibitor; 25 µM).
O=C(CCl)N(CCNC(=O)C(F)(F)F)c1ccc([N+](=O)[O-])cc1 has an inhibition of 100% (GSTO1; probe labelling, inhibitor, competitive ABPP; MDA-MB-435; 1 µM, 1 h, 10% serum).
CC[C@H](C)[C@H](NC(=O)[C@H](CCCNC(=N)N)NC(=O)[C@H](CCCCN)NC(=O)[C@@H]1CCCN1C(=O)[C@@H]1CCCN1CCCN(CC[C@H](N)C(=O)O)C[C@H]1O[C@@H](n2cnc3c(N)ncnc32)[C@H](O)[C@@H]1O)C(=O)N[C@@H](C)C(N)=O gave an inhibition of less than 40% (PRMT1 (Homo sapiens, UniProt Q99873); enzyme activity, inhibitor; 33 µM).
The inhibition of COc1cc(NC(=O)c2cc3ccc(Cl)cc3s2)cc(OC)c1OC is reported as 0% (AGER; binding to AGE-BSA, competitive ELISA; 100 µM, 60 min).
Nc1cccc2ccc(O)c(/N=N/c3ccc(S(N)(=O)=O)cc3)c12 gave an inhibition of 57.3% (GLO1; enzyme activity, inhibitor; 25 µM).
O=[N+]([O-])c1ccc(O)c(O)c1 gave an inhibition of 37 ± 1% (lecA (Pseudomonas aeruginosa, UniProt Q05097); binding inhibitor, fluorescence polarization; 4000 µM, 4 mM catechol, together with: Cy5 galactoside tracer).
The inhibition of O=C(NC1CCCCC1)C(c1ccccn1)N(C(=O)CCl)c1cccc(Cl)c1 (racemic) is reported as 100% (GSTO1; probe labelling, gel-based competitive ABPP; MDA-MB-435 soluble proteome; 100 nM, together with: SE-Rh probe).
Oc1ccc(CCC(O)CC(O)CCc2ccc(O)cc2)cc1 (stereo not shown) gave an inhibition of 17.8 ± 1.2% (Maob (Rattus norvegicus, UniProt P19643); enzyme activity, inhibitor; 20 µg/mL).

For quick reference, copied from above:
O=C(CCl)N(CCNC(=O)C(F)(F)F)c1ccc([N+](=O)[O-])cc1 has an inhibition of 100% (GSTO1; probe labelling, inhibitor, competitive ABPP; MDA-MB-435; 1 µM, 1 h, 10% serum).
O=[N+]([O-])c1ccc(O)c(O)c1 gave an inhibition of 37 ± 1% (lecA (Pseudomonas aeruginosa, UniProt Q05097); binding inhibitor, fluorescence polarization; 4000 µM, 4 mM catechol, together with: Cy5 galactoside tracer).
